Earlier results as cited in several papers.
Each line is one published result; not all experiments were run side by side. ± marks the error that the study gave. Converted amounts (≈) assume the structure as drawn.

`NC1=N[C@@]2(c3ccc(F)cc3F)CO[C@@H](CF)C[C@H]2CS1` has an intrinsic clearance of < 8 mL/min/kg (human liver microsomes).
The half-life of `CNCCCOc1cc(F)c(-c2c(Cl)nc3ncnn3c2N[C@@H](C)C(F)(F)F)c(F)c1` is reported as 13 h (nude mouse, female).
`Cc1nc2n(c(=O)c1CCN1CCC(c3noc4cc(F)ccc34)CC1)CCCC2O` (stereo not shown) gave a Kp,brain of 0.06 (mouse).
`O=C1C2=C(CCN(Cc3ccccc3)C2)N2CCN=C2N1Cc1ccc(C(F)(F)F)cc1` gave a Cmax of 1460 ng/mL (rats; oral, 50 mg/kg).
For `CCOc1ccc(Cc2cc(C3OC(SC)C(O)C(O)C3OC3OC(C(=O)O)C(O)C(O)C3O)ccc2Cl)cc1` (stereo not shown), “share of total plasma radioactivity” read 94% (human, plasma; dose not given, major metabolite of sotagliflozin).
`O=C([O-])CN1CCN(CC(=O)[O-])CCN(CC(=O)c2ccccc2)CCN(CC(=O)[O-])CC1.[Gd+3]`: “activation enthalpy of water exchange” 6.45 kcal/mol (concentration not given, TSAP isomer).
`Cc1ccccc1-c1cc(N2CCNCC2)ncc1N(C)C(=O)C(C)(C)c1cc(C(F)(F)F)cc(C(F)(F)F)c1` has a Tmax of 15.3 h (healthy volunteers, plasma; oral, dose not given, netupitant-palonosetron, fed).
`COCCOCCOCCOCCC(=O)NCc1cc(CNC(=O)CCOCCOCCOCCOC)cc(-c2cc3cc4nc(c(OC)c5[nH]c(cc6nc(cc2[nH]3)CC6(C)C)cc5-c2cc(CNC(=O)CCOCCOCCOCCOC)cc(CNC(=O)CCOCCOCCOCCOC)c2)CC4(C)C)c1` — result for “Qy absorption FWHM”: 22 nm (DMF; room temperature).
For `C=C[C@@H]1C[C@]1(NC(=O)[C@@H]1C[C@@H](Oc2cc(-c3ccccc3)nc3cc(OC)ccc23)CN1C(=O)[C@@H](NC(=O)OC(C)(C)C)C(C)(C)C)C(=O)NS(=O)(=O)C1CC1`, the tissue concentration was 0.004 µM (rat, plasma; dose not given, 8 h post-dose).
The pKa of `Cc1cc(N)nc(CC2CNCC2OCCNCC(F)(F)c2cccc(F)c2)c1` (racemic) is reported as ~5.5 (amine next to CF2 group).
The AUC ratio of `C[C@](C#N)(COc1cc(C#N)ccc1C(F)(F)F)NC(=O)c1ccc(S(=O)(=O)C(F)(F)F)cc1` is reported as ~12 (sheep, plasma; concentration not given; reference: compound over monepantel).
`COc1cc2c(O[C@@H]3OC[C@@H](OC)[C@H](OC)[C@H]3O)c3c(c(-c4ccc5c(c4)OCO5)c2cc1OC)C(=O)OC3` — result for “body weight and lymphocyte count”: “no effect” (healthy mice; dose not given).
The pKa2 of `Oc1cccc(-c2cccc(O)n2)n1.[Cl-].[Cl-].[Ru+2].c1cnc2c(c1)ccc1cccnc12.c1cnc2c(c1)ccc1cccnc12` is reported as 6.8.
Under “plasma level ratio”, `CC(=O)N[C@H](CC(=O)O)C(=O)N[C@H](Cc1c[nH]c2ccccc12)C(=O)N[C@H](Cc1ccccc1)C(=O)N[C@H](CCCCN)C(=O)N[C@H](C)C(=O)N[C@H](Cc1ccccc1)C(=O)N[C@H](Cc1ccc(O)cc1)C(=O)N[C@H](CC(=O)O)C(=O)N[C@H](CCCCN)C(=O)N[C@@H](C(=O)N[C@H](C)C(=O)N[C@H](CCC(=O)O)C(=O)N[C@H](CCCCN)C(=O)N[C@H](Cc1ccccc1)C(=O)N[C@H](CCCCN)C(=O)N[C@H](CCC(=O)O)C(=O)N[C@H](C)C(=O)N[C@H](Cc1ccccc1)C(N)=O)C(C)C` is recorded as 298 fold (LDLR-knockout mouse, plasma; 45 mg/kg/day; reference: subcutaneous over oral).
`CC#N.O=S(=O)([O-])C(F)(F)F.O=S(=O)([O-])C(F)(F)F.Oc1ccc(O)c(CN(CCN(Cc2ccccn2)Cc2ccccn2)Cc2ccccn2)c1.[Mn+2]`: “reduction potential Mn(III)/Mn(II)” 645 mV vs Ag/AgCl (concentration not given).
The tumour/blood ratio of `O=C(CCCCC[N+]#[C][99Tc-5]([C]#[N+]CCCCCC(=O)N[C@H]1C(O)O[C@H](CO)[C@@H](O)[C@@H]1O)([C]#[N+]CCCCCC(=O)N[C@H]1C(O)O[C@H](CO)[C@@H](O)[C@@H]1O)([C]#[N+]CCCCCC(=O)N[C@H]1C(O)O[C@H](CO)[C@@H](O)[C@@H]1O)([C]#[N+]CCCCCC(=O)N[C@H]1C(O)O[C@H](CO)[C@@H](O)[C@@H]1O)[C]#[N+]CCCCCC(=O)N[C@H]1C(O)O[C@H](CO)[C@@H](O)[C@@H]1O)N[C@H]1C(O)O[C@H](CO)[C@@H](O)[C@@H]1O` (stereo partly shown) is reported as 60.8 ± 2.86 (mouse A549 xenograft).
`Cc1cc(C#N)cc(C)c1Oc1nc(NC2CCN(Cc3ccc(S(N)(=O)=O)cc3)CC2)nc2ccsc12` has a solubility of 0.05 µg/mL (≈ 0.0911 µM) (pH 7.0).
Under “Eu3+ emission quantum yield”, `O=C([O-])CN1CCN(CC(=O)[O-])CCN(Cc2cc(-c3ccc(OCC(=O)O)cc3)cc(C(=O)[O-])n2)CCN(CC(=O)[O-])CC1.[Eu+3]` is recorded as 0.14.
`CN1CCN(c2cc(-c3ccccc3CO)c(N(C)C(=O)C(C)(C)c3cc(C(F)(F)F)cc(C(F)(F)F)c3)cn2)CC1` gave an AUC(0-inf) of 5840 ng·h/mL (healthy volunteers, plasma; oral, 300 mg, fasted, fixed-dose combination, with: palonosetron 0.5 mg).
`COc1ccc(Nc2nccc(-c3c[nH]nc3-c3cccnc3)n2)cc1` has a remaining compound of 0% (rat liver microsomes; 60 min).
With `CN(C)c1ccc(/C=C2\CCc3ccccc3C2=O)cc1` the absorption maximum was 406 nm.
With `C=C[C@@H]1C[C@]1(NC(=O)[C@@H]1C[C@@H](Oc2nccc3c(OC)cccc23)CN1C(=O)[C@@H](NC(=O)OC(C)(C)C)C(C)(C)C)C(=O)NS(=O)(=O)C1CC1` the AUC was 2.7 µM·h (rat; dose not given).
`CCCC(CCC)C(=O)[O][Pt]([Cl])([Cl])[O]C(=O)C(CCC)CCC.N.N` gave a logP of 0.25 ± 0.03 (shake flask; octanol/water).
For `CN1CCC(C)(C)c2cc3c(-c4ccc(C(=S)N5CCCCC5)s4)c4ccc(=[N+](C)C)cc-4sc3cc21`, “molar extinction coefficient” read 61800 M⁻¹ cm⁻¹ (methanol).
`COc1cc2ncnc(Oc3ccc4c(C(N)=O)c(C)oc4c3)c2cc1OC` — result for “share of plasma radioactivity”: ~17% (human, plasma; dose not given, circulating metabolite).
`C=C[C@@H]1C[C@]1(NC(=O)[C@@H]1C[C@@H](Oc2ncc(OC)c3ccccc23)CN1C(=O)[C@@H](NC(=O)OC(C)(C)C)C(C)(C)C)C(=O)NS(=O)(=O)C1CC1` — result for “heart rate change”: -8% (isolated perfused rabbit heart; 10 µM).
`O=C(O)CCCCCCC(=O)Nc1ccccc1`: “steady-state serum exposure” 13 fold (human; reference: vorinostat).
For `COC(=O)c1cc(=O)n(C)c2cc(-c3ccc(OC)cc3)sc12`, “absolute quantum yield” read 90% (dichloromethane; 10 µM).
With `Cc1ccccc1-c1cc(N2CC[N+](C)([O-])CC2)ncc1N(C)C(=O)C(C)(C)c1cc(C(F)(F)F)cc(C(F)(F)F)c1` the AUC(0-inf) was 1950 ng·h/mL (healthy volunteers, plasma; oral, 300 mg, fed, fixed-dose combination, with: palonosetron 0.5 mg).
`CCOc1ccc(NC(=S)N(CCO)Cc2cc3cc(C)cc(C)c3[nH]c2=O)cc1` gave an oral bioavailability of 99% (mouse; oral, with: 1-aminobenzotriazole (pan-CYP inhibitor)).
With `O=P(O)(O)CN1CCN(CP(=O)(O)O)CCN(CP(=O)(O)O)CCN(CP(=O)(O)O)CC1.[177Lu+3]` the tissue uptake was 4.23 %ID/g (bone; concentration not given).
The CLint of `COc1ccn2c(Nc3cc(F)cc(F)c3)c(-c3ccccn3)nc2c1` is reported as 62 µL/min/mg protein (mouse liver microsomes).
For `CSCCN(CCSC)CCc1ccccn1`, the log KH2 was 3.26 (mixed-mode protonation constant).
For `O=C([O-])CN1CCN(CC(=O)[O-])CCN(CC(=O)NCC2CCC(C(=O)NC(Cc3ccc4ccccc4c3)C(=O)NCCCCC(NC(=O)NC(CCC(=O)O)C(=O)O)C(=O)O)CC2)CCN(CC(=O)[O-])CC1.[68Ga+3]` (stereo not shown), the absorbed dose was 0.206 mSv/MBq (human, kidneys; literature data).
For `CN1CCC(C)(C)c2cc3c(-c4ccc(C(=O)N5CCCCC5)s4)c4ccc(=[N+](C)C)cc-4sc3cc21`, the absorption maximum was 598 nm (methanol).
`COc1cc(F)c(C(C)C)cc1C1=C(CN2C(=O)O[C@H](c3cc(C(F)(F)F)cc(C(F)(F)F)c3)[C@@H]2C)CC(C)(C)CC1` gave a Vd of 0.99 to 1.11 L/kg (monkey; intravenous).
`CC(C)(C)[C@H](NC(=O)[C@H](CCONC(=N)N)NC(=O)Cc1ccc(CNC(=N)N)cc1)C(=O)N[C@@H](CCONC(=N)N)C(=O)NCc1ccc(C(=N)N)cc1` gave an elimination half-life of 0.5 h (mouse; intraperitoneal, 2.5 mg/kg).
For `C=C[C@@H]1C[C@]1(NC(=O)[C@@H]1C[C@@H](Oc2nccc3ccccc23)CN1C(=O)[C@@H](NC(=O)OC(C)(C)C)C(C)(C)C)C(=O)NS(=O)(=O)C1CC1`, the oral bioavailability was 20% (rat; oral, dose not given).
`CC(C)Sc1cccc(O)c(=O)c1O` gave a pKa2 of > 12.
The pKa4 of `Nc1ncnc2c1ncn2[C@H]1C[C@H](O)[C@@H](COP(=O)(O)OP(=O)(O)C(F)(Cl)P(=O)(O)O)O1` (stereo partly shown) is reported as 8.4 (item: bisphosphonate leaving group; aqueous solution; measured experimentally).
